Measured values pooled from the literature.
Lines come from different studies, so protocols differ. ± marks the error that the study gave.

O=C(O)c1cc(O)c(O)c(O)c1  AUC(0-t) (chicken Ross broiler, male, serum; oral, 0.49 mg/kg, 6 h): 1.3 ± 0.57 µM·h
Oc1ccc([C@@H](O)c2cc(-c3ncnc4cc(N5CCOCC5)ccc34)c(F)cc2Cl)nn1  AUC(0-t) (geometric mean; healthy volunteers, plasma; oral, 100 mg, fasted tablet): 380 ng·h/mL
Cc1ccc(NC(=O)c2ccc(CN3CCN(C)CC3)cc2)cc1Nc1nccc(-c2cncc(-c3oncc3C)c2)n1  AUC(0-t) (Parkinson's disease patients, plasma; oral, 50 mg/day, 7 days, steady state): 32100 ± 8190 ng·h/mL
OC[C@H]1O[C@@H](c2cc(Cc3ccc(C4CC4)cc3)c(Cl)c3c2CCO3)[C@H](O)[C@@H](O)[C@@H]1O  AUC(0-t) (healthy Korean adults, fasted, plasma; oral, 0.3 mg single dose, fixed-dose combination tablet, together with: co-administered drug 50 mg): 31.9 ± 10.6 ng·h/mL
C=CC(=O)NC1CCN(c2ncc3ncnc(Nc4ccc(Oc5ccc6c(c5)ncn6C)c(C)c4)c3n2)CC1  AUC(0-t) (healthy male volunteers, plasma; oral, 60 mg, unlabelled tablet): 13.2 µM·h
Cc1ccc2c(c1)C(=O)[C@]1(O)CCN(c3ccc4nc(C)ccc4c3)C1=N2.Cl  AUC(0-t) (plasma; intravenous, 2 mg/kg): 4.46 ± 0.14 µM·h
N[C@@H](Cc1ccc(O)c(O)c1)C(=O)O  AUC(0-t) (Parkinson's disease patients, plasma; oral, dose not given, 3 h, low carbidopa AUC subgroup (11.5 µmol·h/L), median): 8.43 µM·h
N[C@@H](CC(=O)N1CCc2c(nc(C(F)(F)F)nc2C(F)(F)F)C1)CN1CC(F)(F)CCC1=O  AUC(0-t) (healthy Korean adults, fasted, plasma; oral, 50 mg single dose, separate tablets, together with: enavogliflozin 0.3 mg): 1320 ± 251 ng·h/mL
CC[C@H](Nc1ncnc2[nH]cnc12)c1oc2ccccc2c(=O)c1-c1cccc(F)c1  AUC(0-t) (patients, Cohort-1, plasma; oral, 400 mg twice daily, together with: romidepsin 12 mg/m2): 5770 ± 6000 ng·h/mL
C[C@@](Cc1ccc(O)c(O)c1)(NN)C(=O)O  AUC(0-t) (Parkinson's disease patients, plasma; oral, dose not given, 3 h, high levodopa Cmax subgroup (≥9 µmol/L), median): 0.66 µM·h
CS(=O)(=O)c1ccc([C@@H](O)[C@@H](CF)NC(=O)C(Cl)Cl)cc1  AUC(0-t) (chicken (Arbor Acres), plasma; oral, 20 mg/kg, together with: saline pretreatment): 23900 ± 2370 ng·h/mL
CO[C@H]1CC[C@H](N2C(=O)CNc3ncc(-c4ccc(C(C)(C)O)nc4)nc32)CC1  AUC(0-t) (geometric mean; patients, plasma; oral, 15 mg, day 15): 282 ng·h/mL
COc1c(O)cc(C(=O)O)cc1O  AUC(0-t) (LC-MS/MS; male Ross broilers, serum; oral, 0.49 mg/kg gallic acid, 6 h): 0.44 ± 0.27 µM·h
C[C@@H](N)C1CCN(S(=O)(=O)c2cccc3cnccc23)CC1  AUC(0-t) (healthy volunteers, fasted, plasma; oral, 150 mg): 34.8 ng·h/mL
C=CC(=O)NC1CCN(c2ncc3ncnc(Nc4ccc(Oc5ccc6c(c5)ncn6C)c(C)c4)c3n2)CC1  AUC(0-t) (healthy men; oral, 60 mg single dose): 12.1 µM·h
COc1nnc2ccc(N3CCC(c4ccc(OCCN5CCN(C)C(=O)[C@H]5C)cc4)CC3)nn12  AUC(0-t) (patients, plasma; oral, 10 mg twice daily, multiple dose, monotherapy): 0.172 µM·h

Excerpt of the above:
C=CC(=O)NC1CCN(c2ncc3ncnc(Nc4ccc(Oc5ccc6c(c5)ncn6C)c(C)c4)c3n2)CC1  AUC(0-t) (healthy male volunteers, plasma; oral, 60 mg, unlabelled tablet): 13.2 µM·h
Cc1ccc2c(c1)C(=O)[C@]1(O)CCN(c3ccc4nc(C)ccc4c3)C1=N2.Cl  AUC(0-t) (plasma; intravenous, 2 mg/kg): 4.46 ± 0.14 µM·h
